Measured values pooled from the literature.
Each line is one published result; not all experiments were run side by side.
Target: Ephrin type-B receptor 2 (EPHB2, Homo sapiens, UniProt P29323)
One construct used (P29323 19-1055): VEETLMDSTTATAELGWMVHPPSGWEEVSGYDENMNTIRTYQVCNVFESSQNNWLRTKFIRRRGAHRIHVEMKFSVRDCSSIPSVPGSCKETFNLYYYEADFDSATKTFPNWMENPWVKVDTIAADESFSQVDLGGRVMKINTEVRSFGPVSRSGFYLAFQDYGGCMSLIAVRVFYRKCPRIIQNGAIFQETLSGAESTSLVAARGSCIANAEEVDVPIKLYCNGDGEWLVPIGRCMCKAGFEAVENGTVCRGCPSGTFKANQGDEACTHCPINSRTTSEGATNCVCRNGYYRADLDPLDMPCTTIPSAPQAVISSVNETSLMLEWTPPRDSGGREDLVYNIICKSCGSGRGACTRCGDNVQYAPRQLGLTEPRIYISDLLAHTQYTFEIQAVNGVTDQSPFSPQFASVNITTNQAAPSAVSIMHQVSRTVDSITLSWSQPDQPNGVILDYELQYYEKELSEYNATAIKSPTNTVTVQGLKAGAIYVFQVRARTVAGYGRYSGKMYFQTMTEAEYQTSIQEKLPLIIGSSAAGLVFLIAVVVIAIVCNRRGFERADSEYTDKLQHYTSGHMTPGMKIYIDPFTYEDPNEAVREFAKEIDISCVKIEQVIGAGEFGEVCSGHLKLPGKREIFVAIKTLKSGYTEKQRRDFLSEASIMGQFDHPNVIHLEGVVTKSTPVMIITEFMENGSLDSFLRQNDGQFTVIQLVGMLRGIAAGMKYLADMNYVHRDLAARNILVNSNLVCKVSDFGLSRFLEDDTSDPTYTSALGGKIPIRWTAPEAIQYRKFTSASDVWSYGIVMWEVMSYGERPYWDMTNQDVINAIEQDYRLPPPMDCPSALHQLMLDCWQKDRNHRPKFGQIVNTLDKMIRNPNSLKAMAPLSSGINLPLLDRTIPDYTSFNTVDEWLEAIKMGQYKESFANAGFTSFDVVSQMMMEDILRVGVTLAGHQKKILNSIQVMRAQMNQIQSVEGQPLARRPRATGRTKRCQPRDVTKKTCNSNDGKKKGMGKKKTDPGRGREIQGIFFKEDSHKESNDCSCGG

Structure (SMILES) | test | setting | scale | endpoint | value
O=C1NC(=O)/C(=C/c2ccc(-c3ccc(F)cc3O)o2)S1 | enzyme activity | 10 µM | – | remaining activity | 100%
CCN(CC)c1ccc(C2=NNC(=O)CC2C)cc1[N+](=O)[O-] (stereo not shown) | enzyme activity, inhibitor | 10 µM | baseline: vehicle | remaining activity | 99%
C=CC(=O)N1CCC(C(=O)NCC(=O)N2CCN(c3nc(-c4cnc(N)nc4C(F)F)nc(N4CCOCC4)n3)CC2)CC1 | KINOMEscan | 1 µM | – | remaining binding | 95%
C1=C/COCc2cc(ccc2OCCN2CCCC2)Nc2nccc(n2)-c2cccc(c2)COC/1 | – | concentration not given | – | percent of control | 88%
CNc1ncc2c(/C=C/C(=O)N3CCC(OC)CC3)nn(Cc3cccc(C(F)(F)F)c3)c2n1 | kinase activity, inhibitor | 1 µM | baseline: untreated control | remaining activity | 92%
CCCOc1ccc(OC)c(F)c1C(=O)c1ccc(C(=O)N[C@@H]2CNC[C@H]2NC(=O)c2ccc3[nH]ncc3c2)cc1 | enzyme activity | 10 µM | – | remaining activity | 101%
C=CC(=O)N1CCC(COCC(=O)N2CCN(c3nc(-c4cnc(N)nc4C(F)F)nc(N4CCOC[C@@H]4C)n3)CC2)CC1 | KINOMEscan | 1 µM | baseline: DMSO control | remaining binding | 94%
O=C(NC1CCC1)c1ccc2nc(-c3cccc(NS(=O)(=O)NCCN4CCCCC4)c3)cn2c1 | enzyme activity | 10 µM | – | remaining activity | 100%
COc1cc(F)ccc1-c1ncnc(Nc2cccc(C[S@](C)(=N)=O)c2)n1 | kinase activity | 10 µM, together with: 10 µM ATP | – | remaining activity | 72%
C[C@@H](c1ccc(-n2cnc3c(N)ncnc32)cc1)N1CCc2nn(C)c(Cc3ccccc3)c2C1=O | KINOMEscan | 0.1 µM | baseline: DMSO control | remaining binding | 95%

Repeated from above:
Structure (SMILES) | test | setting | scale | endpoint | value
O=C(NC1CCC1)c1ccc2nc(-c3cccc(NS(=O)(=O)NCCN4CCCCC4)c3)cn2c1 | enzyme activity | 10 µM | – | remaining activity | 100%
